Measured values from different studies.
A part holds a random share of what one study measured.

Study 1
Target: Interferon regulatory factor 5, full length, phosphomimetic (IRF5, Homo sapiens, UniProt Q13568-2, residues 1-514, K96S/S451D/S453D/S456D/S462D)
Technique: protein-binding microarray
Form: double-stranded DNA, one strand shown
Matrix: in vitro
Concentration: 250 nM
Notes: 60-bp whole probe
Together with: salmon DNA 0.4 mg/ml
Relative to: random background probes
Reading: higher = stronger binding
Endpoint: log fluorescence
Shared flanks, not repeated: GCCTAGCAC … GTCTTGATTCGCTTGACGCTGCTG
TTAGGTTTCGGTAACGGTTAGTGCTAG: 9.36 z-score
TTAGGTATCGGTTTCGGTTAGTGCTAG: 11.1 z-score
GAGTTTCCATTTTCTGAATGCGTGCTA: 2.68 z-score
TGGTGCTTAGTATTTTTTTCCGTGCTA: 0.0522 z-score
TAAGATATCAGTATCGATTAGTGCTAG: 7.4 z-score
GACGGTCTCCTGCTGCTGACGTGCTAG: -0.348 z-score
GACGGTATCGGACTTGGGACGTGCTAG: 0.678 z-score

Study 2
Target: Prothrombin, mature alpha-thrombin (F2, Homo sapiens, UniProt P00734)
Technique: aptamer microarray, sandwich
Form: DNA with 2'F-ANA
Matrix: in vitro
Concentration: 200 nM
Notes: whole 15-mer aptamer, many near background
Together with: Cy3 exosite-II aptamer, 400 nM
Reading: higher = stronger binding
Endpoint: mean fluorescence intensity
Sequence: GGTTGGTGTGGTTGG
2'F-ANA at 1 2 3 4 5 6 10 12 14: 48.3 a.u.
2'F-ANA at 1 5 7 8 10 14 15: 50.7 a.u.
2'F-ANA at 1 3 4 5 6 9 10 12 13 15: 53.8 a.u.
2'F-ANA at 2 4 7 11 13 14: 105 a.u.
2'F-ANA at 1 7 11 14 15: 68.5 a.u.

Single results of other studies
PhoQ, residues 284 288 289 292 302 303 SLKLQV
fold induction (PhoP, residues 12 14 15 18 19 VQALL (Escherichia coli, UniProt P23836); Sort-seq, item: YFP reporter; E. coli; PhoQ-PhoP variant library, together with: 10 µM Mg2+; relative to: high Mg2+ state, higher = stronger signaling): 16.3

DDB1 (Homo sapiens, UniProt Q16531)
cross-linked residues (PHIP (Homo sapiens, UniProt Q8WWQ0); cross-linking MS; cell fractions; together with: DSSO): K153 to K749

Repeated from above (single results of other studies):
DDB1 (Homo sapiens, UniProt Q16531)
cross-linked residues (PHIP (Homo sapiens, UniProt Q8WWQ0); cross-linking MS; cell fractions; together with: DSSO): K153 to K749
